Measured values collected from several papers.
Lines come from different studies, so protocols differ. Several values in a cell are separate wells, animals, samples, runs or records. Numbers after ± are the reported error.
GPX4: Phospholipid hydroperoxide glutathione peroxidase GPX4 (GPX4, Homo sapiens, UniProt P36969)
Chain of UniProt P36969 (whole entry, looked up): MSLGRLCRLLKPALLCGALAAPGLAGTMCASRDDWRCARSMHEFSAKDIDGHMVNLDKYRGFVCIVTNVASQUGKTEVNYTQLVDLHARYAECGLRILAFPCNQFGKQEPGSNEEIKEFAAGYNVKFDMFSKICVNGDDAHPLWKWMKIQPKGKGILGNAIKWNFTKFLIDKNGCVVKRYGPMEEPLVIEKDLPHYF
TAGLN: Transgelin (TAGLN, Homo sapiens, UniProt Q01995)
Chain of UniProt Q01995 (whole entry, looked up): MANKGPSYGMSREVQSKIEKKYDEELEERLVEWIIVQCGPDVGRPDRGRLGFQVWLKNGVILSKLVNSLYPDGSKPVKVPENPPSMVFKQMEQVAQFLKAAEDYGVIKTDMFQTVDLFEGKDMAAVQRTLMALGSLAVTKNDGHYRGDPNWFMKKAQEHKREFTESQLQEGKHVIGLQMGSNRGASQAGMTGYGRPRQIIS
fimH lectin domain: Type 1 fimbrin D-mannose specific adhesin, lectin domain (fimH, Escherichia coli K-12, UniProt P08191)
Chain of UniProt P08191 (whole entry, looked up): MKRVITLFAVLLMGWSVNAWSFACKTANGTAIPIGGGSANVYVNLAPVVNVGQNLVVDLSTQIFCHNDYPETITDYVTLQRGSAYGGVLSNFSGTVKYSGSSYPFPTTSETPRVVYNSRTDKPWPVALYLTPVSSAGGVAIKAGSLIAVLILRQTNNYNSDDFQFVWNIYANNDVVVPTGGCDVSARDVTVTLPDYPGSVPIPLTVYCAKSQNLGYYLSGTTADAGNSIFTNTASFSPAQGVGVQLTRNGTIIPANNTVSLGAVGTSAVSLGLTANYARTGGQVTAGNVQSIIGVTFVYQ
VHL/BRD9: VHL/BRD9 (Homo sapiens, UniProt P40337+Q9H8M2)
Chain of UniProt P40337 (whole entry, looked up): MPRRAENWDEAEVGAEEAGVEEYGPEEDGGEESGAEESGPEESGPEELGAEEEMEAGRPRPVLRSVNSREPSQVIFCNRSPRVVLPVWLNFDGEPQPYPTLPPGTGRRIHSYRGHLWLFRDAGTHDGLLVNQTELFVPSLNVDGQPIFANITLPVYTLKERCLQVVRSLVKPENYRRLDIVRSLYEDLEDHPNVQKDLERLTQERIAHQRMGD
Chain of UniProt Q9H8M2 (whole entry, looked up): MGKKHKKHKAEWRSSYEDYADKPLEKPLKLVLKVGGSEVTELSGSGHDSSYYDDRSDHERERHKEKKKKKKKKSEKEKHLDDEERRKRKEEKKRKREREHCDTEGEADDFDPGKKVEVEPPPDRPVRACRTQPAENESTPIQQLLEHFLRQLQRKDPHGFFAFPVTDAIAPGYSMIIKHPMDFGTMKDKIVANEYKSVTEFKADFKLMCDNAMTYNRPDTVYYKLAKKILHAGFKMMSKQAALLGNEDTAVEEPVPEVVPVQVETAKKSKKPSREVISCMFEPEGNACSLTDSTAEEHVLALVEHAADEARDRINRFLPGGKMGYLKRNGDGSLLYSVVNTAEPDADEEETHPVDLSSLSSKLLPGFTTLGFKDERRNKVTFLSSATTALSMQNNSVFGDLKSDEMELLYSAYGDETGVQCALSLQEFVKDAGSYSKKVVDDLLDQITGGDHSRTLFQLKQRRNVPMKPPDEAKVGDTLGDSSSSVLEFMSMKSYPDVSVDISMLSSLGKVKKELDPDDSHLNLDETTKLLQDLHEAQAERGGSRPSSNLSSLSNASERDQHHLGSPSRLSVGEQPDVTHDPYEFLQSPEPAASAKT
ACOT11: Acyl-coenzyme A thioesterase 11 (ACOT11, Homo sapiens, UniProt Q8WXI4)
Chain of UniProt Q8WXI4 (whole entry, looked up): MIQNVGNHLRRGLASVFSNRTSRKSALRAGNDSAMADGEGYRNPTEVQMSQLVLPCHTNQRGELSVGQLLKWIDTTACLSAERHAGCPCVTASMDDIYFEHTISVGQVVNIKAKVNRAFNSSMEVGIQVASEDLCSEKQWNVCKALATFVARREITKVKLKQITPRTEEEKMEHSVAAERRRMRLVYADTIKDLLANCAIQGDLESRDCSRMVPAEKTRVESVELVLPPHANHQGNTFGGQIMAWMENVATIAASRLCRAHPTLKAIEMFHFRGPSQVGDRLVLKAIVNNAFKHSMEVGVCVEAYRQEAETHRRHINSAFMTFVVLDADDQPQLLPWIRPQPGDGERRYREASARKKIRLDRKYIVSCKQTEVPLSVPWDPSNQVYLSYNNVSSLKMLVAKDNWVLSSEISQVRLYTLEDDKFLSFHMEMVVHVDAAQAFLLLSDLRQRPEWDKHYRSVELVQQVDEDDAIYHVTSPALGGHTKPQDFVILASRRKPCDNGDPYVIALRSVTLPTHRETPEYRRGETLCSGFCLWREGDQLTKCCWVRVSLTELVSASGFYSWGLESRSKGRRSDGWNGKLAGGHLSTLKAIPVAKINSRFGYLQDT
ALDH2: Aldehyde dehydrogenase, mitochondrial (ALDH2, Homo sapiens, UniProt P05091)
Chain of UniProt P05091 (whole entry, looked up): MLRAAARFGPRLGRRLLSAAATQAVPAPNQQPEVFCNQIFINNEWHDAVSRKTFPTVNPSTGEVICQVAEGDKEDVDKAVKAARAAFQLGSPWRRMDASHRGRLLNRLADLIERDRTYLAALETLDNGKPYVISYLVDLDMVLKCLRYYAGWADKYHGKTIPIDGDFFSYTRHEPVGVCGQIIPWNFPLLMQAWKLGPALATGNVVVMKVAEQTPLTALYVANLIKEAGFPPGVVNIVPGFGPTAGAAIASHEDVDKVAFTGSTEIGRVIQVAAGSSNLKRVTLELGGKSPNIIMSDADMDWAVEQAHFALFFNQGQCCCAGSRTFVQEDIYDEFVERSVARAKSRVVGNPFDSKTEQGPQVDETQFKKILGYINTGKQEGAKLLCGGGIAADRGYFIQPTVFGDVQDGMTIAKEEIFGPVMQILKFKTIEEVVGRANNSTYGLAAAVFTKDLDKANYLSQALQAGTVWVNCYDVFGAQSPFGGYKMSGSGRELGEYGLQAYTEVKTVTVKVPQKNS
BTLA: B- and T-lymphocyte attenuator (BTLA, Homo sapiens, UniProt Q7Z6A9)
Chain of UniProt Q9H4M9 (whole entry, looked up): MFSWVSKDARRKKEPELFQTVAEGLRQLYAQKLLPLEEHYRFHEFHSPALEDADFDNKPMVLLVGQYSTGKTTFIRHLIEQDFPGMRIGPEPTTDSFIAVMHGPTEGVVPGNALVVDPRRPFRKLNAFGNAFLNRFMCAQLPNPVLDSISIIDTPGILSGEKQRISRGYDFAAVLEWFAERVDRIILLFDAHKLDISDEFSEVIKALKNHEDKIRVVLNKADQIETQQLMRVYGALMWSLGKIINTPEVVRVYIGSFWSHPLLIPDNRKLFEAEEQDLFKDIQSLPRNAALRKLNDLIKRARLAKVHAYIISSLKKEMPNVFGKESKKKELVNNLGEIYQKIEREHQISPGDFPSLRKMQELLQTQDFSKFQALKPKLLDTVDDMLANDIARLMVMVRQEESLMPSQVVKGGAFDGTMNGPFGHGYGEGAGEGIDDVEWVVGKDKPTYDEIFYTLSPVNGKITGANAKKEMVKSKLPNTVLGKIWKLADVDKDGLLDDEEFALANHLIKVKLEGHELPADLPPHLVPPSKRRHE
Chain of UniProt P16442 (whole entry, unmodified, looked up): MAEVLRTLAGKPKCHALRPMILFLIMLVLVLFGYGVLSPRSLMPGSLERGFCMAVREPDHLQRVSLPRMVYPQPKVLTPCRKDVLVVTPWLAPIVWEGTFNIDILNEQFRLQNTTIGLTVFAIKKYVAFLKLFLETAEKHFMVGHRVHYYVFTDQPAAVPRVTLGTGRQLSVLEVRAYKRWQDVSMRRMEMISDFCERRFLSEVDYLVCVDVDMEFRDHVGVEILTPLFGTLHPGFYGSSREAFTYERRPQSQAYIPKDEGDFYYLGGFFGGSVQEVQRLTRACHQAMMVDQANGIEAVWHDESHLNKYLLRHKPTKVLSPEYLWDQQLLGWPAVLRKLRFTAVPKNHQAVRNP
Chain of UniProt Q9SZU7 (whole entry, unmodified, looked up): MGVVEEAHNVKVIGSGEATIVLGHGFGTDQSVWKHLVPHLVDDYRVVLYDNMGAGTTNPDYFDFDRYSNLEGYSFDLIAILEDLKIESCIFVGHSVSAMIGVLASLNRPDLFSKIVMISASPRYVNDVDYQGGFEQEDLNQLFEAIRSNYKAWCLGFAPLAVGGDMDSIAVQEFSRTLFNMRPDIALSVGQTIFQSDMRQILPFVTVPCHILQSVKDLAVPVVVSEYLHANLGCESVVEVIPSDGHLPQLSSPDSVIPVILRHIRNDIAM
Chain of UniProt Q9Y2D0 (whole entry, looked up): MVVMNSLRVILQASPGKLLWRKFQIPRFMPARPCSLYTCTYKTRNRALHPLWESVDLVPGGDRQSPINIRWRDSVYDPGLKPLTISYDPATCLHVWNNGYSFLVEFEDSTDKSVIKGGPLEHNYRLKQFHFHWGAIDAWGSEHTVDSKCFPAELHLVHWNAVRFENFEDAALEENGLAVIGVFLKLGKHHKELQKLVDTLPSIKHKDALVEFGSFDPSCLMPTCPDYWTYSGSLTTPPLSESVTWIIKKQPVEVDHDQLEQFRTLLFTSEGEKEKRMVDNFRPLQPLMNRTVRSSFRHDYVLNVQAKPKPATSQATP
Chain of UniProt P31641 (whole entry, unmodified, looked up): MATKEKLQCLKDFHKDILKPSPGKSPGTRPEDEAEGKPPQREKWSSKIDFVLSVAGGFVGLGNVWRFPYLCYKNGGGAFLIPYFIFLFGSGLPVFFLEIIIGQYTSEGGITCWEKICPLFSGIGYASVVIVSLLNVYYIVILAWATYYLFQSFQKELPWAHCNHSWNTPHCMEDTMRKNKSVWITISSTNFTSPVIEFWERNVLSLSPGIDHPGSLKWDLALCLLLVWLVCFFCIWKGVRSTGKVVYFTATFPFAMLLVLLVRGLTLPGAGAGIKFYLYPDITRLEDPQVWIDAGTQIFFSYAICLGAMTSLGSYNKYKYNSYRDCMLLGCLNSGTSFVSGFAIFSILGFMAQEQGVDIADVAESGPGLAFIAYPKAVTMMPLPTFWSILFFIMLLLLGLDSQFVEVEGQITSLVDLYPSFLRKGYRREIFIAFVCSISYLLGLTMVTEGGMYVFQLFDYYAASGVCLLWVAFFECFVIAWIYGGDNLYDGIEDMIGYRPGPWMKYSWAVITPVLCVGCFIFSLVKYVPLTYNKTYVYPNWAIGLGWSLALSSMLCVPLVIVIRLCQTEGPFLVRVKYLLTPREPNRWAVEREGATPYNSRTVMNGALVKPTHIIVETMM
Chain of UniProt P04631 (whole entry, looked up): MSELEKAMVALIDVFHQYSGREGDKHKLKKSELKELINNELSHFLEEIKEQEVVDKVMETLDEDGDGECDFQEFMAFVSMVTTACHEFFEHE

SMILES | target | assay | test system | conditions | Kd
Nc1ccn(-c2ccc(F)cc2)c(=O)c1 | GPX4 | binder, HSQC NMR titration | DLPC/DPC micelles |  | > 400 µM
O=C(CCc1ccc(O)c(O)c1CCc1ccc(O)c(O)c1)OC(Cc1ccc(O)c(O)c1)C(=O)O (stereo not drawn) | TAGLN | binding, surface plasmon resonance |  |  | 31.2 µM
CCCCCCCO[C@H]1O[C@H](CO)[C@@H](O)[C@H](O)[C@@H]1O | fimH lectin domain | binding, isothermal titration calorimetry |  | 37 °C, global fit, two runs | 0.0362 µM
CC(NC(=O)[C@@H](NC(=O)[C@@H](NC(=O)CCC(C)(C)C)C(C)(C)O)[C@@H](C)c1ccccc1)C(=O)N1CCC[C@@H]1c1ccccc1 (stereo partly drawn) | G3BP1 (Homo sapiens, UniProt Q13283) |  |  |  | 0.15 µM
O=C(/C=C/c1ccc(O)c(O)c1)OC(Cc1ccc(O)c(O)c1)C(=O)O (stereo not drawn) | TAGLN | binding, surface plasmon resonance |  |  | 14 µM
CC[C@H](C)[C@H](NC(=O)[C@H](CCCCN)NC(=O)[C@@H](NC(=O)[C@H](CCCNC(=N)N)NC(=O)[C@@H](NC(=O)c1ccc2c(c1)C(=O)OC21c2ccc(O)cc2Oc2cc(O)ccc21)[C@@H](C)O)[C@@H](C)O)C(=O)N[C@@H](CC(=O)O)C(=O)N[C@@H](Cc1c[nH]c2ccccc12)C(=O)NC(C)(C)C(=O)N[C@@H](CCCCN)C(=O)N[C@H](C(=O)N[C@@H](CC(C)C)C(=O)NC(C)(C)C(N)=O)[C@@H](C)CC | Protein S100-B (Rattus norvegicus, UniProt P04631) | fluorescence anisotropy |  | pH 7.4, Ca2+ present, together with: 50-100 nM fluorescein-labelled peptide | 0.3 ± 0.05 µM
NS(=O)(=O)c1cc(C(=O)NCCCC(=O)O)c(NC2CCCCC2)cc1Cl | CA5B (Homo sapiens, UniProt Q9Y2D0) |  |  | pH 7 | > 200 µM
CC(=O)NCC1CCCCN1c1nc(NCCn2nnc(C)n2)nc(N2CC3C(CCOc4cc(-c5scnc5C)ccc4CNC(=O)[C@@H]4C[C@@H](O)CN4C(=O)[C@@H](NC(=O)C4(F)CC4)C(C)(C)C)C3C2)n1 (stereo partly drawn) | VHL/BRD9 | ternary binding, SPR |  | together with: VCB at 2 µM | 0.769 µM
CCOC(=O)C(CCNC(=O)CCc1ccc(O)c(O)c1CCc1ccc(O)c(O)c1)Cc1ccccc1 (stereo not drawn) | TAGLN | binding, surface plasmon resonance |  |  | 742 µM
O=C(O)CCC(=O)c1cccc(NS(=O)(=O)c2c[nH]c3ncccc23)c1 | Ubiquitin carboxyl-terminal hydrolase 39, ZnF-UBD domain (Homo sapiens, UniProt Q53GS9) |  |  |  | > 1000 µM
CCOC(=O)C(Cc1cccc(O)c1)OC(=O)C=Cc1ccc(O)c(O)c1C=Cc1ccc(O)c(O)c1 (stereo not drawn) | TAGLN | binding, surface plasmon resonance |  |  | 2.39 µM
Cc1[nH]c2ccccc2c1C(c1cccs1)N1CCN(c2ccccc2)CC1 (stereo not drawn) | ACOT11 | binding, microscale thermophoresis |  |  | 6.43 µM
NCCC(=O)O | SLC6A6 (Homo sapiens, UniProt P31641, Y138A) |  |  |  | no binding
Cc1c[nH]c2nccc(-c3ccc(C(=O)N[C@@H]4c5c(F)cc(C(F)F)cc5C[C@@H]4O)cn3)c12 | PRKCD (Homo sapiens, UniProt Q05655) | binding, competition with immobilised ligand |  |  | 0.58 µM
O=C(/C=C/c1ccc(O)c(O)c1/C=C/c1ccc(O)c(O)c1)OC(Cc1ccc(O)cc1)C(=O)O (stereo not drawn) | TAGLN | binding, surface plasmon resonance |  |  | 48.9 µM
CCCCCCCO[C@H]1[C@H](OC)O[C@H](CO)[C@@H](O)[C@H](O)[C@@H]1O | fimH lectin domain | binding, isothermal titration calorimetry |  | 25 °C, global fit, two runs | 2.2 µM
C=CC(=O)N1C[C@H](C)N(c2nc(OC[C@@]34CCCN3C[C@H](F)C4)nc3c(F)c(-c4ccc(F)c5sc(N)c(C#N)c45)c(C(F)(F)F)cc23)C[C@H]1C | GTPase KRas, GppNHp-bound (KRAS, Homo sapiens, UniProt P01116, G12V) |  |  |  | 41.9 µM and 43.1 µM
Cn1ncc2cc(-c3cncc(Cl)c3N3CCC4(CCNC4=O)CC3)ccc21 | MED12 human | SILAC competition | LS174T-L5 lysate |  | 0.009 µM
CCOC(=O)C(CCCCNC(=O)/C=C/c1ccc(O)c(O)c1/C=C/c1ccc(O)c(O)c1)Cc1cccc(O)c1 (stereo not drawn) | TAGLN | binding, surface plasmon resonance |  |  | 77.3 µM
CCOC(=O)N1CCN(C(c2cccs2)c2c(C)n(C)c3ccccc23)CC1 (stereo not drawn) | Acyl-coenzyme A thioesterase 11, START domain (ACOT11, Homo sapiens, UniProt Q8WXI4) | binding, microscale thermophoresis |  |  | 3.56 µM

SMILES | target | assay | test system | conditions | Kd
O=C(NO)c1cnc(NC2(c3cccc(F)c3)CCCCC2)nc1 | ALDH2 | inhibitor, competition pulldown | SW620 and MV4-11 lysate | 1 h | > 30.2 µM
Cc1cccc2c1N(C(=O)n1ccnn1)CC2 | KAI2 (Arabidopsis thaliana, UniProt Q9SZU7, S95D) | ITC |  | S95D mutant | 40.5 µM and 63.3 µM
CC(=O)NCCN(c1nc(N2CC(Oc3ccccc3)C2)nc(N2CC3C(CCOc4cc(-c5scnc5C)ccc4CNC(=O)[C@@H]4C[C@@H](O)CN4C(=O)[C@@H](NC(=O)C4(F)CC4)C(C)(C)C)C3C2)n1)C(C)C (stereo partly drawn) | VHL/BRD9 | ternary binding, SPR |  | together with: VCB at 2 µM | 0.349 µM
Cc1ccc(-n2ccc(N)cc2=O)cc1 | GPX4 | binder, HSQC NMR titration | DLPC/DPC micelles |  | > 400 µM
COc1ccc([C@@H](C#N)N2CCN(C(=O)c3nn(-c4ccccc4)c(=O)c4ccccc34)CC2)cc1 | BTLA | microscale thermophoresis |  |  | 0.54 µM
CCOC(=O)N1CCN(C(c2cccs2)c2c(CC)[nH]c3ccccc23)CC1 (stereo not drawn) | ACOT11 | binding, microscale thermophoresis |  |  | 3.39 µM
O=C(/C=C/c1ccc(O)c(O)c1CCc1ccc(O)c(O)c1)OC(Cc1ccc(O)c(O)c1)C(=O)O (stereo not drawn) | TAGLN | binding, surface plasmon resonance |  |  | 19.2 µM
NC(=O)C[C@@H]1NC(=O)[C@H](Cc2ccc(O)cc2)NC(=O)CNC(=O)CNC(=O)[C@H](CCC(=O)O)NC(=O)[C@H](CCC(=O)O)NC(=O)[C@H](Cc2ccccc2)NC(=O)[C@@H]2CCCN2C1=O | EH domain-containing protein 1, EH domain (Homo sapiens, UniProt Q9H4M9) | peptide binding, ITC |  | 20 °C, 150 mM NaCl | 9.23 µM and 10.7 µM and 9.62 µM
CC(=O)N[C@@H](CCC(=O)O)C(=O)N[C@@H](CCC(=O)O)C(=O)N[C@@H](CC(C)C)C(=O)N[C@@H](CC(C)C)C(=O)N[C@@H](CCCNC(=N)N)C(=O)N[C@@H](C)C(=O)N[C@@H](CC(C)C)C(=O)N[C@@H](CC(=O)O)C(=O)N[C@@H](CCC(N)=O)C(=O)N[C@H](C(=O)O)C(C)C | Histone acetyltransferase p300, CH1 domain (EP300, Homo sapiens, UniProt Q09472) | binding, fluorescence polarization |  | together with: FITC-labelled HIF-1α mimic | > 10 µM
CC(=O)N[C@H]1[C@@H](OP(=O)(O)OP(=O)(O)OC[C@H]2O[C@@H](n3ccc(=O)[nH]c3=O)[C@H](O)[C@@H]2O)O[C@H](CO)[C@@H](O)[C@@H]1O | ABO (Homo sapiens, UniProt P16442, G268A/L266G) | binding, NMR |  |  | 297 µM
COc1ccc(Cn2ccc3ccc(C(=O)NO)cc32)cc1 | ALDH2 | inhibitor, competition pulldown | SW620 and MV4-11 lysate | 1 h | > 30.2 µM
Cc1ncsc1-c1ccc(CNC(=O)[C@@H]2C[C@@H](O)CN2C(=O)[C@@H](NC(=O)C2(F)CC2)C(C)(C)C)c(OCCC2CN(c3nc(NCC(C)(C)C4(O)CCOC4)nc(N4CCC[C@H]4Cn4ccnn4)n3)C2)c1 (stereo partly drawn) | VHL/BRD9 | ternary binding, SPR |  | together with: VCB at 2 µM | 1.7 µM
CCCCCCCCO[C@@H]1O[C@H](CO)[C@H](O)[C@H](O)[C@H]1O[C@@H]1O[C@@H](C)[C@@H](O)[C@@H](O)[C@@H]1O | ABO (Homo sapiens, UniProt P16442, G235S/G268A/L266M/R176G/W181M) | methyl-TROSY NMR titration lineshape analysis |  | apo mutant enzyme | 216 ± 4 µM
CCOC(=O)C(Cc1ccc(O)c(O)c1)OC(=O)/C=C/c1ccc(O)c(O)c1/C=C/c1ccc(O)c(O)c1 (stereo not drawn) | TAGLN | binding, surface plasmon resonance |  |  | 5.06 µM
CC(=O)NCC1CCCCN1c1nc(N(C)CCc2ncc(C)s2)nc(N2CC3C(CCOc4cc(-c5scnc5C)ccc4CNC(=O)[C@@H]4C[C@@H](O)CN4C(=O)[C@@H](NC(=O)C4(F)CC4)C(C)(C)C)C3C2)n1 (stereo partly drawn) | VHL/BRD9 | ternary binding, SPR |  | together with: VCB at 2 µM | 0.442 µM
CC[C@H](C)[C@H](NC(=O)[C@@H](NC(=O)c1cccc(Cl)c1Cl)C(C)(C)C)C(=O)N[C@H](C(=O)N[C@H](C(=O)N[C@H](C(=O)N[C@@H](Cc1ccc(O)cc1)C(=O)N[C@H](CCC(=O)O)C(=O)N[C@@H](Cc1ccc(F)cc1)C(=O)N[C@@H](Cc1c[nH]cn1)C(=O)NCCC(=O)N[C@@H](CCCCNC(=S)Nc1ccc2c(c1)C(=O)OC21c2ccc(O)cc2Oc2cc(O)ccc21)C(N)=O)[C@@H](C)O)[C@@H](C)CC)C(C)(C)C | Protein phosphatase 3 catalytic subunit alpha, with calcineurin B (PPP3CA, Homo sapiens, UniProt Q08209) | binding, fluorescence polarisation |  | GST-calcineurin, together with: FITC-labelled peptide | 0.012 ± 0.004 µM
CCOC(=O)N1CCN(C(c2cccs2)c2c(C)[nH]c3ccccc23)CC1 (stereo not drawn) | ACOT11 | binding, microscale thermophoresis |  |  | 5.97 µM
Cc1ncsc1-c1ccc(CNC(=O)[C@@H]2C[C@@H](O)CN2C(=O)[C@@H](NC(=O)C2(F)CC2)C(C)(C)C)c(OCCC2CCN(c3nc(NCC(C)(C)C4(O)CCOC4)nc(N4CCC[C@H]4Cn4ccnn4)n3)CC2)c1 (stereo partly drawn) | VHL/BRD9 | ternary binding, SPR |  | together with: VCB at 2 µM | 0.884 µM
CCOc1cccc(CN(CCO)Cc2ccc(O)c(C(=O)O)c2)c1 | BTLA | microscale thermophoresis |  |  | 0.65 µM

A few entries again:
SMILES | target | assay | test system | conditions | Kd
NCCC(=O)O | SLC6A6 (Homo sapiens, UniProt P31641, Y138A) |  |  |  | no binding
Cc1c[nH]c2nccc(-c3ccc(C(=O)N[C@@H]4c5c(F)cc(C(F)F)cc5C[C@@H]4O)cn3)c12 | PRKCD (Homo sapiens, UniProt Q05655) | binding, competition with immobilised ligand |  |  | 0.58 µM
O=C(/C=C/c1ccc(O)c(O)c1/C=C/c1ccc(O)c(O)c1)OC(Cc1ccc(O)cc1)C(=O)O (stereo not drawn) | TAGLN | binding, surface plasmon resonance |  |  | 48.9 µM
CCCCCCCO[C@H]1[C@H](OC)O[C@H](CO)[C@@H](O)[C@H](O)[C@@H]1O | fimH lectin domain | binding, isothermal titration calorimetry |  | 25 °C, global fit, two runs | 2.2 µM
C=CC(=O)N1C[C@H](C)N(c2nc(OC[C@@]34CCCN3C[C@H](F)C4)nc3c(F)c(-c4ccc(F)c5sc(N)c(C#N)c45)c(C(F)(F)F)cc23)C[C@H]1C | GTPase KRas, GppNHp-bound (KRAS, Homo sapiens, UniProt P01116, G12V) |  |  |  | 41.9 µM and 43.1 µM
Cn1ncc2cc(-c3cncc(Cl)c3N3CCC4(CCNC4=O)CC3)ccc21 | MED12 human | SILAC competition | LS174T-L5 lysate |  | 0.009 µM
